Earlier results as cited in several papers.
Compare with care: the assays were run in different laboratories. ± marks the error that the study gave.
Sequence of UniProt P40261 (whole entry, looked up): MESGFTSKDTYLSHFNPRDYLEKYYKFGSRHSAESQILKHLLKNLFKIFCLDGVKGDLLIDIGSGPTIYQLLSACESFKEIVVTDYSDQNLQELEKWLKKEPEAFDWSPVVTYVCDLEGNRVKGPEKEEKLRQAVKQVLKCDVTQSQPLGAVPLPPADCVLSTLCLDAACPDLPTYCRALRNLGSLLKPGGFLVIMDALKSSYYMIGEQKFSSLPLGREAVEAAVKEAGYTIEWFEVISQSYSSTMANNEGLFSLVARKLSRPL

`COc1cnc(-n2cnc(C)n2)c2[nH]cc(C(=O)C(=O)N3CCN(C(=O)c4ccccc4)CC3)c12` has a fraction unbound of 0.182 (plasma; hepatic impairment versus healthy).
For `OCc1ccc(O[C@@H]2O[C@H](CO)[C@@H](O)[C@H](O)[C@H]2O)cc1`, “postoperative delirium incidence” read 19.5% (human surgical patients; iv infusion, 600 mg twice daily, postoperative day 6).
The IC50 of `NCCCS(=O)(=O)O` is reported as 3.4 mM (taurine transporter TauT; transport function, inhibitor; literature value).
For `O=C(NC[C@H]1CN(c2ccc(N3CCOCC3=O)cc2)C(=O)O1)c1ccc(Cl)s1`, “absorption rate constant” read 0.82 h⁻¹ (human; Model A fixed).
`COc1ccc(C(N)=O)cn1` has an IC50 of 0.00245 ± 8e-05 mM (Nicotinamide N-methyltransferase (NNMT, Homo sapiens, UniProt P40261); inhibitor).
For `O=C1CC[C@H](N2Cc3cc(N4CCN(CC5CCN(c6ccc([C@@H]7c8ccc(O)cc8CC[C@@H]7c7ccccc7)cc6)CC5)CC4)ccc3C2=O)C(=O)N1`, tolerability read “not toxic” (human, ER+/HER2− advanced breast cancer; monotherapy).
With `NCCCCC(=O)O` the IC50 was 1.42 mM (taurine transporter TauT; literature value).
`CC1=C(CC(=O)O)c2cc(F)ccc2/C1=C\c1ccc([S+](C)[O-])cc1` (centres unmarked) — result for activity class: “inactive” (Toxoplasma gondii; parasite growth; concentration not given, published screen).

Some of these lines once more:
For `O=C1CC[C@H](N2Cc3cc(N4CCN(CC5CCN(c6ccc([C@@H]7c8ccc(O)cc8CC[C@@H]7c7ccccc7)cc6)CC5)CC4)ccc3C2=O)C(=O)N1`, tolerability read “not toxic” (human, ER+/HER2− advanced breast cancer; monotherapy).
